{"data": "Measurements of several laboratories", "organism": "Mycobacterium tuberculosis", "note": "Protocols differ between the studies behind these lines. ± gives the spread as reported."}
{"SMILES": "O=c1ccc2nc3ccc(OCC4(CO)COC4)cc3oc-2c1", "system": "mc2 6206 PA-824-resistant ddn mutant", "conditions": "7 days", "measurement": "MIC90", "result": "> 256 µM"}
{"SMILES": "COc1c(C)c(-c2ccc(Cc3ccccc3)cc2)nc2ccccc12", "test": "growth, MABA", "system": "H37Rv", "conditions": "aerobic", "measurement": "IC90", "result": "6.53 ± 1.11 µM"}
{"SMILES": "CS(=O)(=O)NC(=O)NCc1cc(-c2ccc(Br)cc2)oc1-c1ccncc1", "system": "MmpL3 G253E mutant", "measurement": "MIC", "result": "0.24 µM"}
{"SMILES": "O=c1oc(-c2ccco2)ns1", "system": "Erdman", "conditions": "50 µM, 4 days, pH 7.4, nitric oxide non-replicating state, added: DETA-NO", "measurement": "reduction in viable count", "result": "2 log CFU"}
{"SMILES": "CCOc1ccc2nc3ccc(=O)cc-3oc2c1", "system": "mc2 6206 clofazimine-resistant fbiC mutant", "conditions": "7 days", "measurement": "MIC90", "result": "18 µM"}
{"SMILES": "CC[C@@H](CO)NCCN[C@@H](CC)CO", "system": "Erdman pFCA-luxAB, BALB/c mice, acute infection", "conditions": "100 mg/kg once daily", "measurement": "CFU reduction", "result": "2 log CFU"}
{"SMILES": "COCCOc1ccc2nc3ccc(=O)c(I)c-3oc2c1", "system": "mc2 6206 PA-824-resistant ddn mutant", "conditions": "7 days", "measurement": "MIC90", "result": "60 µM"}
{"SMILES": "CS(=O)(=O)NC(=O)NCc1cn(-c2ccc(Cl)cc2)nc1-c1ccncc1", "system": "EthA C253R mutant", "measurement": "MIC", "result": "2 µM"}
{"SMILES": "Cn1cc([N+](=O)[O-])nc1COc1ccc2nc3ccc(=O)cc-3oc2c1", "system": "mc2 6206 bedaquiline-resistant MmpL5 regulator mutant", "conditions": "7 days", "measurement": "MIC90", "result": "> 256 µM"}
{"SMILES": "O=c1[nH]c(CC2CCCCC2)cc(O)c1-c1ccccc1", "system": "H37Rv", "measurement": "MIC50", "result": "0.16 µM"}
{"SMILES": "COCCOc1ccc2nc3ccc(=O)c(Br)c-3oc2c1", "system": "mc2 6206 clofazimine-resistant fbiC mutant", "conditions": "7 days", "measurement": "MIC90", "result": "20 µM"}
{"SMILES": "CC(C)Cc1cc(O)c(-c2cccc(Cl)c2)c(=O)[nH]1", "system": "H37Rv", "measurement": "MIC50", "result": "2.67 µM"}
{"SMILES": "Cc1cccc(-c2nsc(=O)o2)c1", "system": "Erdman", "conditions": "50 µM, 4 days, pH 7.4, nitric oxide non-replicating state, added: DETA-NO", "measurement": "reduction in viable count", "result": "1.7 log CFU"}
{"SMILES": "CCc1nc(N)nc(N)c1C#C[C@@H](C)c1cc(OC)cc(-c2ccc(C(=O)O)cc2)c1", "system": "PAS-resistant thyX -16 C>T", "measurement": "MIC", "result": "1 µg/mL"}
{"SMILES": "Cc1ccc(-c2nsc(=O)o2)s1", "system": "Erdman", "conditions": "50 µM, 4 days, pH 7.4, nitric oxide non-replicating state, added: DETA-NO", "measurement": "reduction in viable count", "result": "2 log CFU"}
{"SMILES": "CC1(C)CCC(Cc2cc(O)c(-c3ccccc3)c(=O)[nH]2)CC1", "system": "inhA D148E resistant mutant", "measurement": "MIC50", "result": "> 5 µM"}
{"SMILES": "O=c1ccc2nc3ccc(OCCO)cc3oc-2c1", "system": "mc2 6206 bedaquiline-resistant MmpL5 regulator mutant", "conditions": "7 days", "measurement": "MIC90", "result": "> 256 µM"}
{"SMILES": "CS(=O)(=O)NC(=O)CCc1cn(-c2ccc(Br)cc2)nc1-c1ccc(Cl)cc1", "system": "EthA C253R mutant", "measurement": "MIC", "result": "8 µM"}
{"SMILES": "CCc1nc(N)nc(N)c1C#CCc1cc(OC)cc(-c2ccc(C(=O)O)cc2)c1", "system": "PAS-resistant folC E153G", "measurement": "MIC", "result": "4 µg/mL"}
